Measured values of several laboratories.
Each line is one published result; not all experiments were run side by side.

Compound | target or system | assay | test system | conditions | how to read | quantity | value
CC1=C(Cn2cc([Si](C)(C)C)nn2)C(=O)c2ccccc2C1=O | Schistosoma mansoni |  | adult worms | 25 µM, 72 h |  | killing | 70.5%
CC(C)NCC(O)c1ccc(O)c(O)c1 (stereo not drawn) |  |  | ventricular cardiomyocytes, C57BL/6 mouse | dose not given, 0.52 s |  | sarcomere length | 1.5 µm
CC[C@H](C)C(=O)O[C@H]1CCC=C2C=C[C@H](C)[C@H](CC[C@@H]3C[C@@H](O)CC(=O)O3)[C@H]21 | Nedd8-cullin1 interaction | neddylation, AlphaScreen |  | 100 µM |  | inhibition | 59.7%
CC1=C(Cn2cnc([N+](=O)[O-])n2)C(=O)c2ccccc2C1=O | Schistosoma mansoni |  | adult worms | 10 µM, 72 h |  | killing | 48.1%
C[C@H](Oc1ccc(Br)cc1-c1ccon1)C(=O)O |  | first response peak | human, tibialis anterior muscle | 100 mg, 15 Hz, single ascending dose |  | difference from placebo | 4.18%
CCN(CC)CCNC(=O)c1ccc(NC(C)=O)cc1 | Nedd8-cullin1 interaction | neddylation, AlphaScreen |  | 100 µM |  | inhibition | 35.5%
CC1=C(Cn2cncn2)C(=O)c2ccccc2C1=O | Schistosoma mansoni |  | adult worms | 25 µM, 24 h |  | killing | 41.7%
Cn1cc(-c2ccc(-c3cncc(Cl)c3N3CCC4(CCNC4=O)CC3)cc2)cn1 | COLO 205 | gene expression, microarray, refers to: NDRG1 mRNA |  | concentration not given, 6 h | relative to: untreated cells | log2 fold change | 3.16
CCn1cc(-c2cc(Cn3ccoc3=N)cc3c2CCN([C@@H](C)c2cc(OC)ccn2)C3=O)c(C(F)(F)F)n1 | NCI-H661 | cell growth, inhibitor |  | 120 h |  | EC50 | 0.018 µM
NC[C@H]1CC[C@H](C(=O)O)CC1 | Nedd8-cullin1 interaction | neddylation, AlphaScreen |  | 100 µM |  | inhibition | 31.2%
O=C(O)CNC(=O)Cc1ccccc1 |  |  | ventricular cardiomyocytes, C57BL/6 mouse | dose not given, 0.76 s |  | sarcomere length | 1.72 µm
CC1=C(Cn2cc(CBr)nn2)C(=O)c2ccccc2C1=O | Schistosoma mansoni |  | adult worms | 10 µM, 48 h |  | killing | 44.9%
CCn1cc(-c2cc(Cn3ccnc3)cc3c2CCN([C@H](c2cc(OC)ccn2)C2CC2)C3=O)c(C(F)(F)F)n1 | HEC151 | cell growth |  | 120 h |  | EC50 | 19.1 µM
CC1=C(Cn2ccnc2[N+](=O)[O-])C(=O)c2ccccc2C1=O | Schistosoma mansoni |  | adult worms | 25 µM, 24 h |  | killing | 48.5%
CCOC(=O)C(C)(C)Oc1ccc(Cl)cc1 | Nedd8-cullin1 interaction | neddylation, AlphaScreen |  | 100 µM |  | inhibition | -402%
CC1=C(Cc2cn(CCOS(=O)(=O)c3ccc(C)cc3)nn2)C(=O)c2ccccc2C1=O | Schistosoma mansoni |  | adult worms | 25 µM, 48 h |  | killing | 42.7%
CC[C@H](C)C(=O)O[C@H]1C[C@H](O)C=C2C=C[C@H](C)[C@H](CC[C@@H](O)C[C@@H](O)CC(=O)O)[C@H]21 | Nedd8-cullin1 interaction | neddylation, AlphaScreen |  | 100 µM |  | inhibition | 23.8%
CC1=C(Cn2cc(CN3CCOCC3)nn2)C(=O)c2ccccc2C1=O | Schistosoma mansoni |  | adult worms | 10 µM, 72 h |  | killing | 47.2%
Cc1ccc(N(CC2=NCCN2)c2cccc(O)c2)cc1 | Nedd8-cullin1 interaction | neddylation, AlphaScreen |  | 100 µM |  | inhibition | 10.1%
CC1=C(Cn2cc(CNC(=O)OC(C)(C)C)nn2)C(=O)c2ccccc2C1=O | Schistosoma mansoni |  | adult worms | 25 µM, 72 h |  | killing | 55.5%
COc1ccc2cc1Oc1ccc(cc1)C[C@H]1c3c(cc4c(c3Oc3cc5c(cc3OC)CCN(C)[C@@H]5C2)OCO4)CCN1C | Nedd8-cullin1 interaction | neddylation, AlphaScreen |  | 100 µM |  | inhibition | 19.1%
COc1cnc2cccc(N3CCc4c(cc(Cn5ccnc5C)cc4-c4cn(C)nc4C(F)(F)F)C3=O)c2c1 | SK-MEL-24 | cell growth, inhibitor |  | 120 h |  | EC50 | > 30 µM
CCOc1nc2cccc(C(=O)O)c2n1Cc1ccc(-c2ccccc2-c2nnn[nH]2)cc1 | Nedd8-cullin1 interaction | neddylation, AlphaScreen |  | 100 µM |  | inhibition | 35.4%
OC(CCN1CCCCC1)(c1ccccc1)C1CC2C=CC1C2 (stereo not drawn) |  | resting-state EEG | healthy elderly humans | oral, 2 mg, eyes open, LS mean |  | EEG power, gamma, Fz-Cz | 0.5 µV²
